Measured values of several laboratories.
Lines come from different studies, so protocols differ.
UniProt O96017, sequence (whole entry, looked up): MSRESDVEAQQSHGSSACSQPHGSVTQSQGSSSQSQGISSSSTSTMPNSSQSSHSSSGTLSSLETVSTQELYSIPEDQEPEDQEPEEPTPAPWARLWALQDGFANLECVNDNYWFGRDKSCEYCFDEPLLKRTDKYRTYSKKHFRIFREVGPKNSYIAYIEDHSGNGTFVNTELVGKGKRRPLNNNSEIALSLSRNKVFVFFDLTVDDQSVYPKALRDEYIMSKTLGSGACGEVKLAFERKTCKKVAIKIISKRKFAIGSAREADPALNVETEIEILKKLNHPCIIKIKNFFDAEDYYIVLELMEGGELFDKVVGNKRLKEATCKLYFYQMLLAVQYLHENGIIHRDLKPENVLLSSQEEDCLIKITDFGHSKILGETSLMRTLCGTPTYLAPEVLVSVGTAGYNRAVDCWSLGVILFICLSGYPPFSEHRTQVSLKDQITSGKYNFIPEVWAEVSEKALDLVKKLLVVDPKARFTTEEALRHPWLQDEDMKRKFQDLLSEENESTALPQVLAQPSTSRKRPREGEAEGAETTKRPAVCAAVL

Compound	target or system	test	system	conditions	quantity	result
CCc1nc2c(C)cc(N3CCN(CC(=O)N4CC(O)C4)CC3)cn2c1N(C)c1nc(-c2ccc(F)cc2)c(C#N)s1	–	–	human, plasma	oral, 600 mg, fed, healthy volunteers	Cmax	8200 ng/mL
CCN1CCN(Cc2ccc(NC(=O)c3ccc(C)c(NC(=O)c4cncc(-c5cccs5)c4)c3)cc2C(F)(F)F)CC1	–	–	mouse, plasma	intraperitoneal, 30 mg/kg, single dose	AUC(0-inf)	3.18 µg·h/mL
N#Cc1ccc(-c2csc(CNC(=O)[C@H]3CCCN(C(=O)COCCF)C3)n2)cc1	–	metabolic stability	human, liver microsomes	0.5 µM	microsomal CLint	29 µL/min/mg
CC(=O)N(C)[C@H]1CCN(C(=O)c2cnc3c(c2)C[C@](C)(c2ccc(F)cc2)N3)C1	–	–	male human, plasma	oral, 60 mg, multiple doses, once daily, steady state	AUC(0-t)	8.17 µM·h
COc1cc(C(=O)NC2CCN(C)CC2)c(F)cc1Nc1ncc(C(F)(F)F)c(Oc2cccc3c2C(=O)N(C)C3)n1	–	–	human, plasma	oral, 100 mg, multiple doses, once daily, steady state, patients	Cmax	1430 nM
N#C[C@@]12C[C@@H]1[C@@H](n1cnc3c(N[C@@H](C4CCC4)C4CC4)nc(I)nc31)[C@H](O)[C@@H]2O	–	–	male Wistar rat, plasma	oral, 10 mg/kg	AUC(0-t)	343 ng·h/mL
O=C(c1ccc(F)cc1)C1CCN(CCn2c(=O)[nH]c3ccccc3c2=O)CC1	–	metabolic stability, mass spectrometry	human, liver microsomes	1 h	compound remaining	31.2%
COc1ccc([C@@H](O)c2cc(-c3ncnc4cc(N5CCOCC5)ccc34)c(F)cc2Cl)nn1	–	–	human, plasma	oral, 100 mg, multiple doses, twice daily, patients	AUC(0-t)	3230 ng·h/mL
Cn1nccc1-c1nc(N2CCC(c3ccccn3)C2)c2ccccc2n1 (centres unmarked)	–	metabolic stability	mouse, liver microsomes	–	microsomal CLint	365 µL/min/mg
N=C(N)c1cccc(OCc2ccccc2COc2cccc(C(=N)N)c2)c1	–	haemolysis	sheep	200 µg/mL, 1 h	haemolysis	0.1%
NCc1cc2c(cc1F)C(=O)N(C1CCC(=O)NC1=O)C2 (centres unmarked)	–	–	male CD-1 mouse, plasma	intravenous, 1 mg/kg, 4.98 min	concentration	347 ng/mL
COCCc1ccc(OCC(O)CNC(C)C)cc1 (centres unmarked)	–	metabolic stability	human, hepatocytes	0.5 µM, pH 7.4	hepatocyte CLint	4.05 µL/min/10⁶ cells
COc1cccc(-c2n[nH]c(SCc3ccccn3)n2)c1OC	–	–	female Sprague-Dawley rat, plasma	oral, 30 mg/kg, 15 min, single dose	concentration	45400 ng/mL
COc1ccc2c(c1)CN(C(=O)CCN1CCC(Cc3ccccc3)CC1)CC[S@@+]2[O-]	–	–	male human, plasma	intravenous, 0.01 mg/kg, healthy volunteers	Vd	75.2 L
CCOC(=O)[C@@]12C[C@@H]1[C@@H](n1ccc3c(NC)nc(C#Cc4ccc(Cl)s4)nc31)[C@H](O)[C@@H]2O	–	–	male Sprague-Dawley rat, plasma	intravenous, 0.5 mg/kg, 1 h	concentration	9.69 ng/mL
CC(C)(C)c1ccc(O)c(CN(Cc2cc(C(C)(C)C)ccc2O)C2CCC(NC(N)=O)CC2)c1 (centres unmarked)	–	–	male C57BL/6 mouse, brain	intraperitoneal, 25 mg/kg, single dose	tissue/plasma ratio	0.99
O=C(Nc1ccc(CN2CCOCC2)c(C(F)(F)F)c1)c1ccc(C#Cc2cccc3cnccc23)cn1	–	–	Caco-2	–	Papp B→A	0.699 ×10⁻⁶ cm/s
O=c1c2ccc(OCc3cccc(OC(F)(F)F)c3)cc2[nH]c2cc(Cl)cc(F)c12	–	metabolic stability	mouse, liver microsomes	1 µM, pH 7.4	microsomal CLint	3.55 µL/min/mg
COc1ccc([C@@H]2CN(C(=O)[C@@H](O)CO)C[C@@]2(C)[C@@H](C)O)cc1OC1CN(c2ccc(C)cn2)C1	–	–	human, plasma	oral, 20 mg, single dose, healthy volunteers	Vd/F	57.1 L
CNc1ncc2c(/C=C/C(=O)N3CCC(OC)CC3)nn(Cc3cccc(C(F)(F)F)c3)c2n1	Serine/threonine-protein kinase Chk2 (CHEK2, Homo sapiens, UniProt O96017)	enzyme activity, inhibitor, radiometric	–	1 µM	remaining activity	109%
COc1ccc([C@@H]2Sc3ccccc3N(CCN(C)C)C(=O)[C@@H]2OC(C)=O)cc1	–	metabolic stability	human, hepatocytes	0.5 µM, pH 7.4	hepatocyte CLint	13.7 µL/min/10⁶ cells

Compound	target or system	test	system	conditions	quantity	result
CC(C)NCCOCC(=O)N1CCC[C@H](C(=O)NCc2nc(-c3ccc(C(F)(F)F)cc3)cs2)C1	–	metabolic stability	male Sprague-Dawley rat, liver microsomes	0.5 µM	microsomal CLint	19 µL/min/mg
N=C(N)c1ccc(OCCCCCOc2ccc(C(=N)N)cc2)cc1	–	haemolysis	sheep	200 µg/mL, 1 h	haemolysis	4%
CCn1cc(C)c2c([C@H](O)c3ccc(C(F)(F)F)nc3)n(C)nc2c1=O	–	metabolic stability	male Sprague-Dawley rat, hepatocytes	0.5 µM, pH 7.4	hepatocyte CLint	3.7 µL/min/10⁶ cells
COc1ccccc1-c1nc(N2CCC(c3ccccn3)C2)c2ccccc2n1 (centres unmarked)	–	–	PAMPA	10 µM, 3 h, pH 7.4	Papp	23.9 ×10⁻⁶ cm/s
O=c1cc(-c2ccc(O)cc2)oc2c([C@@H]3O[C@H](CO)[C@@H](O)[C@H](O)[C@H]3O)c(O)cc(O)c12	–	–	Caco-2	100 µg/mL	efflux ratio	1.21
N#CC1CCN(c2nc(-c3ccccn3)nc3ccccc23)C1 (centres unmarked)	–	metabolic stability	mouse, liver microsomes	–	microsomal CLint	183 µL/min/mg
Cc1ccc(S(=O)(=O)n2cc3c4c2C(=O)C(NCc2ccc(Cl)cc2)=CC4=NCC3)cc1	–	–	rat, plasma	intravenous, 5 mg/kg, single dose	AUC(0-inf)	1.86 µg·h/mL
O=c1c2c([nH]c3cc(Oc4cccc(OC(F)(F)F)c4)ccc13)CCCC2	–	metabolic stability	mouse, liver microsomes	1 µM, pH 7.4	microsomal CLint	0.99 µL/min/mg
NCCOCC(=O)N1CCC[C@H](C(=O)NCc2nc(-c3ccc(C(F)(F)F)cc3)cs2)C1	–	metabolic stability	human, liver microsomes	0.5 µM	microsomal CLint	< 3 µL/min/mg
Cn1nc2c(=O)n(C3CC3)ccc2c1[C@](O)(c1cnc(C(F)(F)F)c(Cl)c1)C(F)(F)F	–	–	Caco-2	–	Papp B→A	75.3 ×10⁻⁶ cm/s
Fc1cccc(F)c1-c1nc(N2CCC(c3ccccn3)C2)c2ccccc2n1 (centres unmarked)	–	metabolic stability	mouse, liver microsomes	–	microsomal CLint	548 µL/min/mg
O=C(COc1ccc(Cl)cc1)NC12CC(c3nnc([C@H]4C[C@@H](OC(F)(F)F)C4)o3)(C1)C2	–	–	human, plasma	oral, 200 mg, multiple doses, once daily, healthy volunteers	half-life	2780 min
CC(=O)CC(c1ccccc1)c1c(O)c2ccccc2oc1=O (centres unmarked)	–	metabolic stability	human, hepatocytes	0.5 µM, pH 7.4	hepatocyte CLint	1.65 µL/min/10⁶ cells
N=C(N)c1ccc(OCc2cc(Br)cc(COc3ccc(C(=N)N)cc3)c2)cc1	–	haemolysis	sheep	200 µg/mL, 1 h	haemolysis	0.6%
CC[C@@](O)(c1cnc(C(F)(F)F)c(Cl)c1)c1c2cnn(C3CC3)c(=O)c2nn1C	–	metabolic stability	male Sprague-Dawley rat, hepatocytes	0.5 µM, pH 7.4	hepatocyte CLint	0.7 µL/min/10⁶ cells
c1ccc(-c2nc(N3CCCCCC3)c3ccccc3n2)nc1	–	metabolic stability	mouse, liver microsomes	–	microsomal CLint	413 µL/min/mg
O=C1CC[C@H](N2Cc3cc(N4CCN(CC5CCN(c6ccc([C@@H]7c8ccc(O)cc8CC[C@@H]7c7ccccc7)cc6)CC5)CC4)ccc3C2=O)C(=O)N1	–	–	male Sprague-Dawley rat, plasma	oral, 20 mg/kg, fasted	AUC(0-t)	6110 ng·h/mL
O=C(NC1(C(F)(F)F)CC1)c1ccccc1	–	–	water	24 h	logP	1.9
O=C(O)C1CCN(c2nc(-c3ccccn3)nc3ccccc23)C1 (centres unmarked)	–	–	PAMPA	10 µM, 3 h, pH 7.4	Papp	< 0.1 ×10⁻⁶ cm/s
CCc1cc(-c2noc(-c3cc(OC)nc(C4CCCC4)c3)n2)cc(C)c1OC[C@@H](O)CO	–	–	Wistar rat, plasma	oral, 10 mg/kg, 48 h, single dose	concentration	149 ng/mL

A few entries again:
Compound	target or system	test	system	conditions	quantity	result
CNc1ncc2c(/C=C/C(=O)N3CCC(OC)CC3)nn(Cc3cccc(C(F)(F)F)c3)c2n1	Serine/threonine-protein kinase Chk2 (CHEK2, Homo sapiens, UniProt O96017)	enzyme activity, inhibitor, radiometric	–	1 µM	remaining activity	109%
COc1ccc([C@@H]2Sc3ccccc3N(CCN(C)C)C(=O)[C@@H]2OC(C)=O)cc1	–	metabolic stability	human, hepatocytes	0.5 µM, pH 7.4	hepatocyte CLint	13.7 µL/min/10⁶ cells
CC(C)NCCOCC(=O)N1CCC[C@H](C(=O)NCc2nc(-c3ccc(C(F)(F)F)cc3)cs2)C1	–	metabolic stability	male Sprague-Dawley rat, liver microsomes	0.5 µM	microsomal CLint	19 µL/min/mg
N=C(N)c1ccc(OCCCCCOc2ccc(C(=N)N)cc2)cc1	–	haemolysis	sheep	200 µg/mL, 1 h	haemolysis	4%
